# Measured values collected from several papers.
# Several values in a cell are separate wells, animals, samples, runs or records. ± gives the spread as reported.
# Ephx2: Bifunctional epoxide hydrolase 2 (Ephx2, Mus musculus, UniProt P34914)
# Chain of UniProt P34914 (whole entry, looked up): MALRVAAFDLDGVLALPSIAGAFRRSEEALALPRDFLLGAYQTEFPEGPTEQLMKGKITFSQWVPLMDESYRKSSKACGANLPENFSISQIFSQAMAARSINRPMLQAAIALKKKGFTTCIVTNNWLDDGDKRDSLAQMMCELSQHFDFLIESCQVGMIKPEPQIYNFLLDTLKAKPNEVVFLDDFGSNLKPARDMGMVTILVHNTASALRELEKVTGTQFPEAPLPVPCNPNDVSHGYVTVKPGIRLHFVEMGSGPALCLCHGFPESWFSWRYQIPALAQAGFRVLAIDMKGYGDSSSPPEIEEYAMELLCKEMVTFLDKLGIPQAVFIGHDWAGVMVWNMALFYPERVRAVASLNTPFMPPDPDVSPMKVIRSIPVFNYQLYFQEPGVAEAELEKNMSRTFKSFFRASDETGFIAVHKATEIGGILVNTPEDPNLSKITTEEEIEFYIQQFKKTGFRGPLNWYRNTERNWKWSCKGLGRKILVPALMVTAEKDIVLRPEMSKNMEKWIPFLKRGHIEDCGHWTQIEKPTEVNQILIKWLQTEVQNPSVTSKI
# AAK1: AP2-associated protein kinase 1 (AAK1, Homo sapiens, UniProt Q2M2I8)
# Chain of UniProt Q2M2I8 (whole entry, looked up): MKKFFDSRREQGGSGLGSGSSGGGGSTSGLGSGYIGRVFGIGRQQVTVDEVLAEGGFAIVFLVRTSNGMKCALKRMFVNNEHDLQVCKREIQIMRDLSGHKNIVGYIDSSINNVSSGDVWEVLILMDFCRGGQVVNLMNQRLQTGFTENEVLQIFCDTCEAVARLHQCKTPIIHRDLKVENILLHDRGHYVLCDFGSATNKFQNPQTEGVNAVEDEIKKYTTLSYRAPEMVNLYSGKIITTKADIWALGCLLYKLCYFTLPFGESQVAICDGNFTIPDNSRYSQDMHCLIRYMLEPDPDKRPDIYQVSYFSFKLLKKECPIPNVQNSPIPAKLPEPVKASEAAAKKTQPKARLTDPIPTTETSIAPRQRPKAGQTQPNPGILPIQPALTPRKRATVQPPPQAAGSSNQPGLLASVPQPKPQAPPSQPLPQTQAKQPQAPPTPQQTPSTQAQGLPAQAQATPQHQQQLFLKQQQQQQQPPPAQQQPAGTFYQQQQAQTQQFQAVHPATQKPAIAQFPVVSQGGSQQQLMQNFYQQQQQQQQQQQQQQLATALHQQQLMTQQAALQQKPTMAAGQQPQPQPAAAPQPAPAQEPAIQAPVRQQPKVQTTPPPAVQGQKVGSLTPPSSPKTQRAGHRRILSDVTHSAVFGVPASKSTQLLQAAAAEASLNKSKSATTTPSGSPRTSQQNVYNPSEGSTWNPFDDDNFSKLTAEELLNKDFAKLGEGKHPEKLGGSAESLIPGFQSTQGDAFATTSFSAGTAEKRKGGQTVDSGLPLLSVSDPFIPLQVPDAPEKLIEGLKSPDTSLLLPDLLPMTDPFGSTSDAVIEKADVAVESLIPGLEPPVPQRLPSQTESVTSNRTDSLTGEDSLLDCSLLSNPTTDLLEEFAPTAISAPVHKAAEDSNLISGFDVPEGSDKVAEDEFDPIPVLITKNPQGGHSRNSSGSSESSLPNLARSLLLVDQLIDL
# EPHX2: Bifunctional epoxide hydrolase 2 (EPHX2, Homo sapiens, UniProt P34913)
# Chain of UniProt P34913 (whole entry, looked up): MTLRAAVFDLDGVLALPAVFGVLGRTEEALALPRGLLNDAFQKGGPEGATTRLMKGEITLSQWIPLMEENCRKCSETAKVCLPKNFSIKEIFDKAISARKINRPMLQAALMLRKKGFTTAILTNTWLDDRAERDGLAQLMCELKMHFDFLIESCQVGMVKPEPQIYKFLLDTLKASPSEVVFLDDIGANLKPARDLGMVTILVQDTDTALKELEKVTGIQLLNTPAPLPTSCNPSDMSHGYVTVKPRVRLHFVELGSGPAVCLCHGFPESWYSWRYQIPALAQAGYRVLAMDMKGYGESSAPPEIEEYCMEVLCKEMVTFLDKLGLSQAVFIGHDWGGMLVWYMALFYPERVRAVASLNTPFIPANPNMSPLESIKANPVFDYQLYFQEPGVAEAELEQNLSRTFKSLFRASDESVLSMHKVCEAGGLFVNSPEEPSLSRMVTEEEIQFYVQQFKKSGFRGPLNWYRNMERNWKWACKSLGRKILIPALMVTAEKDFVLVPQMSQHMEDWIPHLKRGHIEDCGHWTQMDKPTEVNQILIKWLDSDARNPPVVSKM
# FAAH: Fatty-acid amide hydrolase 1 (FAAH, Homo sapiens, UniProt O00519)
# Chain of UniProt O00519 (whole entry, looked up): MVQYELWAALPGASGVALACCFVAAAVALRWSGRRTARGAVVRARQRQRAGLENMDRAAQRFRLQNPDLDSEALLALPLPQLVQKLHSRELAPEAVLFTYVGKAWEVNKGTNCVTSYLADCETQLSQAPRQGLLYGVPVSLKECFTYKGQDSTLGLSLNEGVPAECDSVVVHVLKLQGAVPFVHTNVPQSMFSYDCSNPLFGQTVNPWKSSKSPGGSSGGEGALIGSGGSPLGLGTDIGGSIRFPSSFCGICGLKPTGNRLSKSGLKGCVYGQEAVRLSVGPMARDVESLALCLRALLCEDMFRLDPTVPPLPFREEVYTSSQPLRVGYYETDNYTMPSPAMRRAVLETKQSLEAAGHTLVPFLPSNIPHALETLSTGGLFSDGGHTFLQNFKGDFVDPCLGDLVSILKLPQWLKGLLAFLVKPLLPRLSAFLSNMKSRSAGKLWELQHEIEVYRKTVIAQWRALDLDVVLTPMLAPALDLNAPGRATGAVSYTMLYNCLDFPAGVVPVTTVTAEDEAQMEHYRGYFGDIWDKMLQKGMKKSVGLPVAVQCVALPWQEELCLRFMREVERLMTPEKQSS
# Chain of UniProt O42275 (whole entry, looked up): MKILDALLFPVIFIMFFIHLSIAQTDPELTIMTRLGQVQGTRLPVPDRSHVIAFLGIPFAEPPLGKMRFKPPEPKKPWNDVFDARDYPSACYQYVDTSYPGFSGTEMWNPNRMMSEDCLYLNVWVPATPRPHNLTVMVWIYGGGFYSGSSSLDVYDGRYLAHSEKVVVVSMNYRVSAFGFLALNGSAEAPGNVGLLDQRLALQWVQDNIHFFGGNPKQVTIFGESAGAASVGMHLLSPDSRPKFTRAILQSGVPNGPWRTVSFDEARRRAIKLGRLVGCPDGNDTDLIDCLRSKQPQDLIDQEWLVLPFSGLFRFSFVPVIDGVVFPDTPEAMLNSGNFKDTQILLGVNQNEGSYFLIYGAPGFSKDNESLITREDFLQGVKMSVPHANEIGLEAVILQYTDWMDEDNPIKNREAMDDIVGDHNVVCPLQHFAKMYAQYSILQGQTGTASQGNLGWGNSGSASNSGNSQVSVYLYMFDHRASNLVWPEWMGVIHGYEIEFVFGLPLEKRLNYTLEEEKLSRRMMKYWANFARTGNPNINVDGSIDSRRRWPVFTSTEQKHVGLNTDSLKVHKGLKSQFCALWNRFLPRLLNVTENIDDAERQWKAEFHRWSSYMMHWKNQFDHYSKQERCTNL
# Chain of UniProt Q9NQR1 (whole entry, looked up): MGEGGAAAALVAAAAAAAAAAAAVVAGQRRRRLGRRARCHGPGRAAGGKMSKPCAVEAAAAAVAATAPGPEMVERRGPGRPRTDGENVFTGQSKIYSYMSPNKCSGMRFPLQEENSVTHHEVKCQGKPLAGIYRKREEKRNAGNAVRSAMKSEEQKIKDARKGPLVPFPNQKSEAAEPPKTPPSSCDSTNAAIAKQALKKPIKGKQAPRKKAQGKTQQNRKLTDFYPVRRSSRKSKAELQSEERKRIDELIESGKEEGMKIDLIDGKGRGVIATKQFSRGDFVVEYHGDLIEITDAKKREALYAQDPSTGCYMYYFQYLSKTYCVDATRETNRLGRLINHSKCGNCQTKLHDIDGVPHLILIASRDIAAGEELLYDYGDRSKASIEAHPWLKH
# Chain of UniProt Q16678 (whole entry, looked up): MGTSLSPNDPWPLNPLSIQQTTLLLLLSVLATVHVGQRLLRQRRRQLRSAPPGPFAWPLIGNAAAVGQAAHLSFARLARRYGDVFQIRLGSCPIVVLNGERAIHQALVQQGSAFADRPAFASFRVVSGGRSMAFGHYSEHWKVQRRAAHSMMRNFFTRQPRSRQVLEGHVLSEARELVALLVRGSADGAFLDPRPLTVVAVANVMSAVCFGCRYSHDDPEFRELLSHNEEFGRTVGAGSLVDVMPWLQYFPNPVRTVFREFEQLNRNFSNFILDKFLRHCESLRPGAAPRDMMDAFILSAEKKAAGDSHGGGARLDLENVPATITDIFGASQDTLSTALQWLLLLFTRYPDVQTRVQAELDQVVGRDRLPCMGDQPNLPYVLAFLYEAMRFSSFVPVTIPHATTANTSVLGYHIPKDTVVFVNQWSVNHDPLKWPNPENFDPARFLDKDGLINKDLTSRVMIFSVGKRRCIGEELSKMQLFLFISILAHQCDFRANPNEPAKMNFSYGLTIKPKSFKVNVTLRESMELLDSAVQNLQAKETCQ
# Chain of UniProt P50750 (whole entry, looked up): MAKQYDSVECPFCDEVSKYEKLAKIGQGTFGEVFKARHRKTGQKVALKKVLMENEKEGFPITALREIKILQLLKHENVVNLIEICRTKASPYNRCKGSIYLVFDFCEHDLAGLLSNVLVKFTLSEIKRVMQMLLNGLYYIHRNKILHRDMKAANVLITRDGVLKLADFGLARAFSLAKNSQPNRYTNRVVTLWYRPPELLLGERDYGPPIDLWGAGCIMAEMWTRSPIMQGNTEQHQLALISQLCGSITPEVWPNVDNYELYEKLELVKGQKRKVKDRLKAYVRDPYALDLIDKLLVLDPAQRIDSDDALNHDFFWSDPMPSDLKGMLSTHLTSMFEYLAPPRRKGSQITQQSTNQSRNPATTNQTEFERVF
# Chain of UniProt P0DMS8 (whole entry, looked up): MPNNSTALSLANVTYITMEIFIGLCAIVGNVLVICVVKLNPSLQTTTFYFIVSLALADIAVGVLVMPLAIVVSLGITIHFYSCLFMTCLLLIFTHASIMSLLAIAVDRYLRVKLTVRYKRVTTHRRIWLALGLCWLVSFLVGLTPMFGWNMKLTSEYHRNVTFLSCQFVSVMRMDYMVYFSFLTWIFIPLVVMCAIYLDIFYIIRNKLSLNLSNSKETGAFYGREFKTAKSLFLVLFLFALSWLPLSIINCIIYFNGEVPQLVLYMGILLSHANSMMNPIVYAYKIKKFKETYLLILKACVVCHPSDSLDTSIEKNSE
SMILES,tested on,test,test system,setting,endpoint,value
Cc1ccc(S(=O)(=O)Nc2c(N3CCC(NC(=O)Nc4ccc(C)c(Cl)c4)CC3)c(=O)c2=O)cc1,Ephx2,,,,IC50,0.7 ± 0.09 nM
COc1ccc(-c2ccc3[nH]cc(C#Cc4cccnc4)c3n2)cc1OC,AAK1,,,,IC50,> 10000 nM
CC(C)(C)OC(=O)NCCOc1ccc(Cl)cc1C(=O)NCC(=O)Nc1ccc([N+](=O)[O-])cc1Cl,"Cathepsin B (CTSB, Homo sapiens, UniProt P07858)",,,,IC50,> 200000 nM
O=C(Nc1ccc(-c2cnc3ccccc3c2)cc1)C1CCN(Cc2ccccc2)CC1,"ache (Electrophorus electricus, UniProt O42275)",,,,IC50,~1000 nM and 934 nM
O=C(Nc1ccc(Cl)cc1)NC1CCN(c2c(NS(=O)(=O)Cc3ccccc3)c(=O)c2=O)CC1,EPHX2,,,,IC50,15 ± 1.7 nM
C(#Cc1c[nH]c2nccc(-c3ccsc3)c12)c1cccnc1,AAK1,,,,IC50,3.99 nM
Cc1ccccc1S(=O)(=O)Nc1c(N2CCC(NC(=O)Nc3ccc(Cl)c(F)c3)CC2)c(=O)c1=O,Ephx2,,,,IC50,757 ± 65.9 nM
Cc1cccc(CN2CCC(C(=O)Nc3ccc(-c4cnc5ccccc5c4)cc3)CC2)c1,EPHX2,,,,IC50,184 nM
Cc1ccc(S(=O)(=O)Nc2c(N3CCC(NC(=O)Nc4ccc(C(F)(F)F)c(F)c4)CC3)c(=O)c2=O)cc1,Ephx2,,,,IC50,2250 ± 254 nM
O=C(Nc1ccc(-c2ccc3ccccc3n2)cc1)C1CCN(Cc2ccccc2F)CC1,FAAH,,,,IC50,42.9 nM
O=C(Nc1cc(F)cc(F)c1)NC1CCN(c2c(NS(=O)(=O)Cc3ccccc3)c(=O)c2=O)CC1,EPHX2,,,,IC50,36 ± 2.9 nM
CN(Cc1cnc2nc(N)nc(N)c2n1)c1ccc(C(=O)N[C@@H](CCC(=O)O)C(=O)O)cc1,"dihydrofolate reductase (Wuchereria bancrofti, UniProt J9F199)",inhibitor,,,IC50,23 ± 3.3 nM
Fc1ccc(-c2ccnc3[nH]cc(C#Cc4cccnc4)c23)cc1,AAK1,,,,IC50,4.62 nM
Cc1ccccc1CN1CCC(C(=O)Nc2ccc(-c3cnc4ccccc4c3)cc2)CC1,EPHX2,,,,IC50,147 nM
O=C(Nc1ccc(C(F)(F)F)c(F)c1)NC1CCN(c2c(NS(=O)(=O)Cc3ccccc3)c(=O)c2=O)CC1,EPHX2,,,,IC50,2.6 ± 0.2 nM
CCCCCn1c2ccccc2c2cc(C(=O)N3CCN(CC(=O)NC(C)(C)C)CC3)ccc21,"CACNA1H (Homo sapiens, UniProt O95180)","T-type calcium current, blocker, whole-cell voltage clamp",tsA201 cells transiently expressing hCav3.2,tonic block,IC50,3680 ± 500 nM
C(#Cc1c[nH]c2nccc(-c3cccs3)c12)c1cccnc1,AAK1,,,,IC50,1.98 nM
O=C(O)CCCC[C@@H]1SC[C@@H]2NC(=O)N[C@@H]21,"KMT5A (Homo sapiens, UniProt Q9NQR1)",inhibitor,,"apparent, bead displacement artifact",IC50,1760 nM and 1300 to 1700 nM
O=c1cc(-c2ccccc2)oc2c1ccc1occc12,"Cyclin-dependent kinase 9, with cyclin K (CDK9, Homo sapiens, UniProt P50750)",inhibitor,,,IC50,8010 ± 1720 nM
O=C(Nc1ccc(-c2ccc3ccccc3n2)cc1)C1CCN(Cc2ccc(F)cc2F)CC1,FAAH,,,,IC50,141 nM
Cc1ccccc1S(=O)(=O)Nc1c(N2CCC(NC(=O)Nc3ccc(F)c(Cl)c3)CC2)c(=O)c1=O,Ephx2,,,,IC50,890 ± 102 nM
COc1ccc(-c2ccc3c(C#Cc4cccnc4)c[nH]c3n2)cc1OC,AAK1,,,,IC50,> 10000 nM
COc1ccc(-c2cccc(-c3ccc(OC)cc3OC)c2)c(OC)c1,"Cytochrome P450 1B1 (CYP1B1, Homo sapiens, UniProt Q16678)","enzyme activity, inhibitor",,,IC50,inactive
O=C(Nc1ccc(-c2cnc3ccccc3c2)cc1)C1CCN(Cc2ccccc2[N+](=O)[O-])CC1,FAAH,,,,IC50,34.3 nM
Cc1c(C2(c3ccc(C(F)(F)F)c(C#N)c3)CC2)c[nH]c1C(=O)NC(C)c1nc[nH]n1 (centres unmarked),"ADORA3 (Homo sapiens, UniProt P0DMS8)",,,,IC50,34000 nM
Cc1cc(OCc2nnc(SC3CCCC3)n2-c2cccnc2)ccc1-c1ccc(S(C)(=O)=O)cc1,SR,,,,GI50,34 nM
O=C(Nc1ccc(-c2ccc3ccccc3n2)cc1)C1CCN(Cc2cccc(F)c2)CC1,EPHX2,,,,IC50,348 nM
COc1ccc(NC(=O)NC2CCN(c3c(NS(=O)(=O)c4ccc(C)cc4)c(=O)c3=O)CC2)cc1,Ephx2,,,,IC50,408 ± 38.7 nM
COc1ccc(-c2ncnc3[nH]nc(C#Cc4cccnc4)c23)cc1OC,AAK1,,,,IC50,0.394 nM
CC[C@H](C)[C@H](N)C(=O)N[C@@H](CCCNC(=N)N)C(=O)N[C@@H](CC(C)C)C(=O)N[C@@H](CCCNC(=N)N)C(=O)N1CCC[C@H]1C(=O)NCC(=O)NCC(=O)N[C@@H](CCCCN)C(=O)N[C@@H](CCCCN)C(=O)O,"HLA class I histocompatibility antigen, B alpha chain, allele B*27:05 (Homo sapiens, UniProt P01889)",,,,IC50,45 nM
COc1ccc(-c2ncnc3[nH]cc(C#Cc4cccnc4)c23)cc1OC,AAK1,,,,IC50,0.902 nM
O=C(Nc1ccc(-c2cnc3ccccc3c2)cc1)C1CCN(Cc2cccnc2)CC1,EPHX2,,,,IC50,77.8 nM

# For quick reference, copied from above:
SMILES,tested on,test,test system,setting,endpoint,value
Cc1ccccc1S(=O)(=O)Nc1c(N2CCC(NC(=O)Nc3ccc(Cl)c(F)c3)CC2)c(=O)c1=O,Ephx2,,,,IC50,757 ± 65.9 nM
Cc1cccc(CN2CCC(C(=O)Nc3ccc(-c4cnc5ccccc5c4)cc3)CC2)c1,EPHX2,,,,IC50,184 nM
Cc1ccc(S(=O)(=O)Nc2c(N3CCC(NC(=O)Nc4ccc(C(F)(F)F)c(F)c4)CC3)c(=O)c2=O)cc1,Ephx2,,,,IC50,2250 ± 254 nM
